Experimental data of several laboratories.
± gives the spread as reported.

Compound | test | system | conditions | how to read | endpoint | value
N=C(N)NCCC[C@@H]1NC(=O)[C@H](CCCCNC(=O)CCOCCOCCOCCOCCNC(=O)CN2CCN(CC(=O)O)CCN(CC(=O)O)CCN(CC(=O)O)CC2)NC(=O)[C@@H](Cc2ccccc2)NC(=O)[C@H](CC(=O)O)NC(=O)CNC1=O [indium-111 labelled] |  | female athymic nude mice, heart | intravenous, 3 µCi, 0.5 h, U-87 MG glioma xenograft |  | tissue uptake | 1.83 ± 0.08 %ID/g
CC(C)C[C@H](NC(=O)[C@@H]1CCCN1C(=O)[C@H](CCCCN)NC(=O)[C@@H](N)CO)C(=O)N1CCC[C@H]1C(=O)N[C@@H](CCC(=O)O)C(=O)N[C@H](C(=O)N[C@H](C(=O)N[C@@H](CC(=O)O)C(=O)N[C@@H](CCC(=O)O)C(=O)N[C@@H](Cc1ccc(O)cc1)C(=O)N[C@@H](Cc1cn(CCOCCOCCOCCNC(=O)CCc2ccc(O)c(CN(CCN(CC(=O)O)Cc3cc(CCC(=O)NCCCC[C@H](NC(=O)N[C@@H](CCC(=O)O)C(=O)O)C(=O)O)ccc3O)CC(=O)O)c2)nn1)C(=O)O)[C@@H](C)O)C(C)C [gallium-68 labelled] |  | NMRI nu/nu mice, LNCaP tumour, spleen | 135.34 nmol/kg, low molar activity |  | standardized uptake value | 0.1 g/g
CCCC[C@H](NC(=O)CNC(=O)CNC(=O)CNC(=O)c1ccc(NN)nc1)C(=O)N[C@H]1CC(=O)NCCCC[C@@H](C(N)=O)NC(=O)[C@H](Cc2c[nH]c3ccccc23)NC(=O)[C@H](CCCNC(=N)N)NC(=O)[C@@H](Cc2ccccc2)NC(=O)[C@H](Cc2c[nH]cn2)NC1=O [technetium-99m labelled] |  | C57 mouse, B16/F1 melanoma, muscle | intravenous, 2 h |  | uptake | 0.03 ± 0.03 %ID/g
CSCC[C@H](NC(=O)[C@H](CC(C)C)NC(=O)[C@H](Cc1c[nH]cn1)NC(=O)CNC(=O)[C@@H](NC(=O)[C@H](C)NC(=O)[C@H](Cc1c[nH]c2ccccc12)NC(=O)[C@H](CCC(N)=O)NC(=O)CCCCCNC(=O)CNC(=O)CNC(=O)CNC(=O)CSC(C)=O)C(C)C)C(N)=O [technetium-99m labelled] |  | Swiss mouse, blood | intravenous, 18.5 MBq, 240 min |  | tissue uptake | 0.05 ± 0.01 %ID/g
N=C(N)NCCC[C@@H]1NC(=O)[C@H](CCCCNC(=O)CC[C@H](NC(=O)CCOCCOCCOCCOCCNC(=O)CN2CCN(CC(=O)O)CCN(CC(=O)O)CCN(CC(=O)O)CC2)C(=O)NCCCC[C@@H]2NC(=O)[C@@H](Cc3ccccc3)NC(=O)[C@H](CC(=O)O)NC(=O)CNC(=O)[C@H](CCCNC(=N)N)NC2=O)NC(=O)[C@@H](Cc2ccccc2)NC(=O)[C@H](CC(=O)O)NC(=O)CNC1=O [indium-111 labelled] |  | female athymic nude mouse | intravenous, 3 µCi, 72 h, U-87 MG glioma xenograft | reference: tumour over muscle | tumour to muscle ratio | 6.36 ± 0.84
CCCC[C@H](NC(=O)CNC(=O)CNC(=O)c1ccc(NN)nc1)C(=O)N[C@H]1CC(=O)NCCCC[C@@H](C(N)=O)NC(=O)[C@H](Cc2c[nH]c3ccccc23)NC(=O)[C@H](CCCNC(=N)N)NC(=O)[C@@H](Cc2ccccc2)NC(=O)[C@H](Cc2c[nH]cn2)NC1=O [technetium-99m labelled] |  | C57 mouse, B16/F1 melanoma, lung | 2 h, with: NDP-MSH 6.07 nmol blockade |  | uptake | 0.34 ± 0.11 %ID/g
CCCC[C@H](NC(=O)CCCCCCCNC(=O)c1ccc(NN)nc1)C(=O)N[C@H]1CC(=O)NCCCC[C@@H](C(N)=O)NC(=O)[C@H](Cc2c[nH]c3ccccc23)NC(=O)[C@H](CCCNC(=N)N)NC(=O)[C@@H](Cc2ccccc2)NC(=O)[C@H](Cc2c[nH]cn2)NC1=O [technetium-99m labelled] |  | C57 mouse, B16/F1 melanoma, liver | 2 h, with: NDP-MSH 10 µg (6.07 nmol) co-injected |  | tissue uptake | 1.22 ± 0.12 %ID/g
N=C(N)NCCC[C@@H]1NC(=O)[C@H](CCCCNC(=O)CNC(=O)CNC(=O)CNC(=O)CC[C@H](NC(=O)CCOCCOCCOCCOCCNC(=O)CC[C@H](NC(=O)CN2CCN(CC(=O)O)CCN(CC(=O)O)CCN(CC(=O)O)CC2)C(=O)NCCOCCOCCOCCOCCC(=O)N[C@@H](CCC(=O)NCC(=O)NCC(=O)NCC(=O)NCCCC[C@@H]2NC(=O)[C@@H](Cc3ccccc3)NC(=O)[C@H](CC(=O)O)NC(=O)CNC(=O)[C@H](CCCNC(=N)N)NC2=O)C(=O)NCC(=O)NCC(=O)NCC(=O)NCCCC[C@@H]2NC(=O)[C@@H](Cc3ccccc3)NC(=O)[C@H](CC(=O)O)NC(=O)CNC(=O)[C@H](CCCNC(=N)N)NC2=O)C(=O)NCC(=O)NCC(=O)NCC(=O)NCCCC[C@@H]2NC(=O)[C@@H](Cc3ccccc3)NC(=O)[C@H](CC(=O)O)NC(=O)CNC(=O)[C@H](CCCNC(=N)N)NC2=O)NC(=O)[C@@H](Cc2ccccc2)NC(=O)[C@H](CC(=O)O)NC(=O)CNC1=O [indium-111 labelled] |  | female athymic nude mice, lungs | intravenous, 3 µCi, 1 h, U-87 MG glioma xenograft |  | tissue uptake | 2.38 ± 0.28 %ID/g
CCCCCC(=O)N[C@H]1CSCc2cc(CSCCNC(=O)CCCCCNC(=O)CC[C@H](NC(=O)CCC(C(=O)O)N3CCN(CC(=O)O)CCN(CC(=O)O)CCN(CC(=O)O)CC3)C(=O)NCCCOc3ccc4nccc(C(=O)NCC(=O)N5CC(F)(F)C[C@H]5C#N)c4c3)cc(c2)CSC[C@@H](C(=O)O)NC(=O)[C@H](Cc2ccccc2)NC(=O)[C@H](CCC(N)=O)NC(=O)[C@H]([C@@H](C)O)NC(=O)[C@@H]2CCCN2C(=O)[C@@H]2CCCN2C1=O (stereo partly shown) | shake flask | PBS |  |  | logP | -2.7
CSCC[C@H](NC(=O)[C@H](CC(C)C)NC(=O)[C@H](Cc1c[nH]cn1)NC(=O)CNC(=O)[C@@H](NC(=O)[C@H](C)NC(=O)[C@H](Cc1c[nH]c2ccccc12)NC(=O)[C@H](CCC(N)=O)NC(=O)CCCCCNC(=O)CN1CCN(CC(=O)O)CCN(CC(=O)O)CC1)C(C)C)C(N)=O [gallium-68 labelled] | microPET imaging | mouse PC-3 xenograft, PC-3 tumour | intravenous, 3.7 MBq, 30 min |  | maximum tumour uptake | 5.14 ± 1.15 %ID/g

For quick reference, copied from above:
Compound | test | system | conditions | how to read | endpoint | value
CCCC[C@H](NC(=O)CNC(=O)CNC(=O)c1ccc(NN)nc1)C(=O)N[C@H]1CC(=O)NCCCC[C@@H](C(N)=O)NC(=O)[C@H](Cc2c[nH]c3ccccc23)NC(=O)[C@H](CCCNC(=N)N)NC(=O)[C@@H](Cc2ccccc2)NC(=O)[C@H](Cc2c[nH]cn2)NC1=O [technetium-99m labelled] |  | C57 mouse, B16/F1 melanoma, lung | 2 h, with: NDP-MSH 6.07 nmol blockade |  | uptake | 0.34 ± 0.11 %ID/g
